# Published values of several laboratories.
# Lines come from different studies, so protocols differ. Several values in a cell are separate wells, animals, samples, runs or records. ± gives the spread as reported.
Substance,assay,test system,conditions,scale,endpoint,value
C=CC(N)CCC(=O)O (stereo not drawn),,"male Sprague-Dawley rat, plasma","oral, 10 mg/kg, formulation 10, with: Sar 200 mg/kg",,elimination rate constant,0.000222 s⁻¹
Cc1c2c(n(-c3ccc(Cl)cc3Cl)c1-c1ccc(OS(=O)(=O)CCC(F)(F)F)cc1)CCN(N1CCCCC1)C2=O,LC-MS/MS,"cynomolgus monkey 5, plasma","intravenous infusion, 0.25 mg/kg, 90 min, total concentration mid-point of PET",,plasma concentration,83 nM
O=C(O)C[C@H](O)C[C@H](O)/C=C/c1c(C2CC2)nc2ccccc2c1-c1ccc(F)cc1,,male Sprague-Dawley rat (wild type),"oral, 5 mg/kg",,Vd/F,10.9 ± 3.36 L/kg
CCCOc1ccc([C@H]2CNC(=O)N2c2ccc3[nH]cnc3c2)cc1,,"human, elderly, fasted, plasma","oral, 500 mg twice daily, tablet, day 11, geometric mean",,AUC(0-12h),11900 ng·h/mL
Cc1ccc(C2Nc3ccccc3-n3c(-c4ccccc4)c4c(=O)n(C)c(=O)n(C)c4c32)o1 (stereo not drawn),LC-MS,"mouse, serum, kidney and urine","intravenous bolus, 300 µg, 30 to 60 min, detection limit below 100 nM",,compound level,not detected
CC#CCn1c(N2CCC[C@@H](N)C2)nc2c1c(=O)n(Cc1nc(C)c3ccccc3n1)c(=O)n2C,,"male ICR mouse, kidney","oral, 3 mg/kg, 24 h",,AUC,25300 ng·h/mL
CN[C@@H]1[C@H](O)[C@H](NC)[C@H]2O[C@]3(O)[C@H](O[C@@H]2[C@H]1O)O[C@H](C)C[C@H]3NC(=O)Cc1cc(Cl)c(C)cn1,glutathione conjugation,rat liver S9,"100 µM, 2 h, pH 7.4, with: glutathione 0.2 mM",,parent remaining,12.9%
CCCCCCCCCCCCCNCC(=O)N(CC(=O)N(CCCCN)CC(=O)N(CCN)CC(=O)N(CC(N)=O)Cc1ccc(Cl)cc1)Cc1ccc(Cl)cc1,preparative RP-HPLC C18,water to acetonitrile gradient,0.05% TFA in eluent,higher = more hydrophobic,acetonitrile at elution,71.1%
C[C@](N)(Cc1ccc(O)c(O)c1)C(=O)O,,supercritical carbon dioxide,"5 h, 333 K, 27 MPa, density 806.7 kg/m3",,solubility,354 µg/mL
Cn1cnc2c(F)c(Nc3ccc(Br)cc3Cl)c(C(=O)NOCCO)cc21,,"nude mice with A-375 tumours, plasma","oral, 10 mg/kg once daily, 7 days, steady state",,Vz/F,1.9 L/kg
CCOc1ccc(Cc2cc([C@]34OC[C@](CO)(O3)[C@@H](O)[C@H](O)[C@H]4O)ccc2Cl)cc1,,"human, fasted","oral, 15 mg",relative to: i.v. 14C 100 µg,oral bioavailability,~100%
CS(=O)(=O)OC[C@H](O)[C@@H]1CO1,,"Wistar rat, male, red blood cells and plasma","intraperitoneal, 500 mg/kg treosulfan, 1 h",,RBC/plasma partition coefficient,0.62 and 0.57
Oc1ccc(-c2nc(-c3ccc(Oc4ccc(C(F)(F)F)cc4)cc3)no2)cc1,,"ICR mice, female, plasma","oral, 50 mg/kg",,distribution half-life,6 h
Cl.Cl.Clc1cc(Br)ccc1-c1ccc(CNCC2CCNCC2)o1,,0.1 M sodium acetate with 0.01% Triton X-100,pH 5.5,,maximum solubility,300 µM
coproporphyrin I,measured: compound endogenous,"human, plasma","concentration not given, with: rosuvastatin and finerenone",relative to: with over without finerenone,AUCtau ratio,99.6%
O=C1Nc2ccccc2C(O)CCc2ccccc21 (stereo not drawn),nephelometry,aqueous buffer,"30 min, pH 6.5",,kinetic solubility,> 100 µg/mL
C=CC(=O)Nc1cc(Nc2ncc(C(=O)OC(C)C)c(-c3cn(C)c4ccccc34)n2)c(OC)cc1N(C)CCN(C)C,,"human, fasted","oral, 80 mg single dose, geometric mean",,AUC(0-t),250 ng·h/mL
Cn1nnc2c(C(N)=O)ncn2c1=O,,"FVB mice, Abcg2 knockout","intravenous, 50 mg/kg",,plasma half-life,0.719 ± 0.017 h
CCCCC(=O)N(Cc1ccc(-c2ccccc2-c2nnn[nH]2)cc1)[C@H](C(=O)O)C(C)C,,"male human, plasma","oral, 400 mg, day 7, alone, adjusted geometric mean",,AUCtau at steady state,30800 ng·h/mL
C=CC(=C)CCC1(C)C(C)CC(O)C23C(=CC(OC(=O)C(C)CC)CC12)C(OC(C)=O)OC3OC(C)=O (stereo not drawn),haemolysis,,100 µM,,haemolysis,9.5%
CC(C)[C@H](NC(=O)[C@@H]1CCCN1C(=O)[C@H](CCCNC(=N)N)NC(=O)[C@H](CS)NC(=O)[C@H](Cc1c[nH]c2ccccc12)NC(=O)[C@H](CCCNC(=N)N)NC(=O)[C@@H](Cc1ccccc1)NC(=O)[C@H](Cc1c[nH]cn1)NC(=O)[C@H](CCC(=O)O)NC(=O)[C@H](CS)NC(=O)[C@H](CS)NC(=O)[C@H](CCCCN)NC(=O)[C@@H]1CC(=O)N[C@@H](CCCNC(=N)N)C(=O)N[C@@H](C(C)C)C(=O)N[C@@H](CC(=O)O)C(=O)N[C@H](Cc2ccc(O)cc2)C(=O)N1)C(N)=O [technetium-99m labelled],,"C57 mouse, B16/F1 melanoma, kidneys","dose not given, 2 h, with: L-lysine 15 mg co-injected",,tissue uptake,55.7 ± 9.14 %ID/g
C[C@@H]1O[C@@H](OC[C@H]2O[C@@H](Oc3c(-c4ccc(O)c(O)c4)oc4cc(O)cc(O)c4c3=O)[C@H](O)[C@@H](O)[C@@H]2O)[C@H](O)[C@H](O)[C@H]1O,UPLC-MS/MS,"Wistar rat, microcirculation dysfunction model, plasma","oral, 100 mg/kg Salvia miltiorrhiza stem-leaf extract FT",,MRT(0-t),7.32 ± 0.77 h
CCN(CC)Cc1cc(Nc2ccnc3cc(Cl)ccc23)ccc1O,,"Wistar rat, male, plasma","oral, 60 mg/kg, with: myricetin 5 mg/kg i.v. pretreatment",,Vd/F,33.9 ± 11.1 L/kg
CCCC[C@H](NC(C)=O)C(=O)N[C@H]1CCC(=O)NC[C@@H](C(=O)N[C@@H](Cc2c[nH]c3ccccc23)C(N)=O)NC(=O)[C@H](CCCNC(=N)N)NC(=O)[C@@H](Cc2ccccc2)NC(=O)[C@H](Cc2c[nH]cn2)NC1=O,,"CD Sprague Dawley rat, male, plasma","subcutaneous, 25.0 mg/kg daily, day 14",,AUC(0-t),1860 ng·h/mL
CCc1oc2cc(OC)ccc2c1C(=O)c1cc(Br)c(O)c(Br)c1,,"Sprague-Dawley rat, intestine microsomes","1 µM, pH 7.4, with: NADPH",,intrinsic clearance,27.3 ± 5.7 µL/min/mg
CC(=O)N[C@H](CSSC[C@H](N)C(=O)O)C(=O)N[C@H](C)C(=O)N[C@H](CCCNC(=N)N)C(=O)N[C@H](CCCNC(=N)N)C(=O)N[C@H](CCCNC(=N)N)C(=O)N[C@H](C)C(=O)N[C@H](CCCNC(=N)N)C(N)=O,in vitro hemodialysis,Solvable washout,2 h,relative to: dose,recovery in washout,3.3%
Cc1nc2cccc(OCC(C)(C)C(=O)NC(C)C)c2c(N)c1C(=O)O,,"Sprague-Dawley rat, both sexes, urine","oral, 10 mg/kg",,excreted dose,0.4%
C/C=C/C[C@@H](C)C(=O)[C@H]1C(=O)N[C@@H](C(C)C)C(=O)N(C)CC(=O)N(C)[C@@H](CC(C)C)C(=O)N[C@@H](C(C)C)C(=O)N(C)[C@@H](CC(C)C)C(=O)N[C@@H](C)C(=O)N[C@H](C)C(=O)N(C)[C@@H](CC(C)C)C(=O)N(C)[C@@H](CC(C)C)C(=O)N(C)[C@@H](C(C)C)C(=O)N1C,,"Sprague Dawley rat, plasma","intravenous infusion, 8.0 mg/h/kg, 4 h, 4.5 h constant infusion",,free plasma concentration,2590 ng/mL
O=C1N=C(N2CCOCC2)CN1c1ccc(Cl)cc1,,"beagle dog, male, plasma","oral, 30 mg/kg, tablets, fasted",,AUC(0-inf),88300 ng·h/mL
CC12CCC(CC1=O)C2(C)C (stereo not drawn),,human red blood cells,"10 to 300 µg/mL, 30 min",,maximum hemolysis,< 14%
CN(C)CC(c1ccc(O)cc1)C1(O)CCCCC1 (stereo not drawn),,"human, plasma","oral, 225 mg/day, day 15",,AUCtau,8360 ng·h/mL
Cn1c(-c2ccc(C(N)=O)cc2F)nnc1C(C)(C)Oc1c(F)cc(Cl)cc1F,,"healthy young Japanese subjects, plasma","oral, 10 mg once daily, day 18, 14 days dosing",,half-life range,19.1 to 32 h
C[C@]12CC[C@@H]3c4ccc(O)cc4CC[C@H]3[C@@H]1C[C@@H](O)[C@@H]2O,GC-MS,"breast cancer women on NSAI, serum","vaginal, 0.03 mg, 4 h, day 0",,mean serum concentration,0.0283 ng/mL
CN(C)C(=O)c1cc2cnc(Nc3ccc(N4CCNCC4)cn3)nc2n1C1CCCC1,,"human, non-enhancing tumour","oral, 600 mg/day",,"unbound tumour-to-plasma ratio Kp,uu",1.35
CCCS(=O)(=O)Nc1ccc(F)c(C(=O)c2c[nH]c3ncc(-c4ccc(Cl)cc4)cc23)c1F,rapid equilibrium dialysis,100% human plasma,"500 µM, 4 h",,unbound fraction,1.02e-05 ± 1.7e-06
C[C@@H](O)[C@H](N)C(=O)O,,octanol/phosphate buffer,"pH 7.0, N-4-nitrobenzoyl amino acid derivatives",relative to: glycine derivative,Π (relative logD),0.07 ± 0.01

# Excerpt of the above:
Substance,assay,test system,conditions,scale,endpoint,value
C[C@]12CC[C@@H]3c4ccc(O)cc4CC[C@H]3[C@@H]1C[C@@H](O)[C@@H]2O,GC-MS,"breast cancer women on NSAI, serum","vaginal, 0.03 mg, 4 h, day 0",,mean serum concentration,0.0283 ng/mL
CN(C)C(=O)c1cc2cnc(Nc3ccc(N4CCNCC4)cn3)nc2n1C1CCCC1,,"human, non-enhancing tumour","oral, 600 mg/day",,"unbound tumour-to-plasma ratio Kp,uu",1.35
CCCS(=O)(=O)Nc1ccc(F)c(C(=O)c2c[nH]c3ncc(-c4ccc(Cl)cc4)cc23)c1F,rapid equilibrium dialysis,100% human plasma,"500 µM, 4 h",,unbound fraction,1.02e-05 ± 1.7e-06
